Published values pooled from the literature.
Values joined by “and” are separate records of one study, mostly repeats; a detail may differ. Numbers after ± are the reported error. ≈ marks a conversion by molar mass, not a printed value.

CCCSC(SCCC)c1ccc(OCCNS(=O)(=O)c2ccc(Br)cc2)c(Cl)c1  EC50 (Tobacco mosaic virus; curative activity; plant in vivo): 764.9 ± 4.1 µg/mL (≈ 1380 µM)
COc1ccc(Cn2c3cc(=O)n(Cc4cccc(Cl)n4)c(C)c3c(=O)n2-c2ccccn2)cc1  normalized viral replication (human respiratory syncytial virus; recombinant reporter virus; concentration not given, scale 0 to 100, together with: cytidine 33.3 µM): 0
CCCSC(SCCC)c1ccc(OCCNS(=O)(=O)c2ccc(F)cc2)c(OC)c1  EC50 (Tobacco mosaic virus; inactivation activity; plant in vivo): 79 ± 1.3 µg/mL (≈ 162 µM)
[O-][N+]1=C(c2ccccc2)C2=NCCCN2c2ncccc21  MIC50 (Prevotella spp.; bacterial growth): ≤ 0.06 µg/mL
CCn1cnc2c(Oc3ccc(/C=C/C(=O)c4ccc(NS(=O)(=O)c5ccccc5C)cc4)cc3)ncnc21  EC50 (Tobacco mosaic virus; protective activity; plant in vivo): 447.2 ± 2.1 µg/mL (≈ 829 µM)
COc1ccc(C2=[N+]([O-])c3ccccc3N3CC(C)(C)CN=C23)cc1  MIC90 (Prevotella spp.; bacterial growth): 0.5 µg/mL (≈ 1.49 µM)
CN(C(=O)c1ccn2ncc(-c3ccc(C(N)=O)cc3)c2c1)c1ccc(C#N)cn1  faecal Nluc luminescence (Cryptosporidium parvum; UGA1 Nluc, IFN-gamma knockout C57BL/6 mice, faeces; oral, 10 mg/kg daily, 312 h post infection, treatment days 11-17; higher means more parasites): 8110 a.u. and 4550 a.u. and 247000 a.u. and 3180 a.u.
CCCSC(SCCC)c1ccc(OCCNS(=O)(=O)c2ccc(F)c(Cl)c2)c(OC)c1  EC50 (Tobacco mosaic virus; inactivation activity; plant in vivo): 383.2 ± 3.1 µg/mL (≈ 734 µM)
[O-][N+]1=C(c2ccc(Cl)cc2)C2=NCCCCN2c2ccccc21  MIC90 (Parabacteroides distasonis and Bacteroides spp.; bacterial growth): 2 µg/mL (≈ 6.14 µM)
COc1cc(C(SC(C)C)SC(C)C)ccc1OCCNS(=O)(=O)c1cccc(Br)c1  EC50 (tobacco mosaic virus; curative activity; in vivo plant): > 2500 µg/mL
C[C@H]1O[C@@H](O[C@H]2CC[C@@]3(C)[C@H](C2)C[C@@H]2O[C@]24[C@@H]3C[C@@H](O)[C@]2(C)[C@@H](C3=CC(=O)OC3)CC[C@@]24O)[C@H](O)[C@H](O)[C@@H]1O[C@@H]1O[C@H](CO)[C@@H](O)[C@H](O)[C@H]1O  adult length (Oncopeltus fasciatus; diet, concentration not given): 10.1 mm
CNCCO.O=C(O)C(Cl)Cl  herbicidal inhibition (Eleusine indica; 15 mg/mL, 21 days, post-emergence, greenhouse): 5%
CC[C@H](C)[C@@H]1NC(=O)[C@@H](CCCNC(=N)N)NC(=O)[C@@H](NC(=O)[C@@H](CC(C)C)NC(=O)[C@H](C)NC(=O)[C@H](C)NC(=O)[C@@H]2CCCN2C(=O)[C@@H](CC(C)C)NC(=O)[C@@H](NC(=O)[C@@H](CCCNC(=N)N)NC(=O)[C@@H](CC(C)C)NC(=O)[C@@H](CC(C)C)NC(=O)[C@@H](NC(=O)[C@@H](CCCNC(=N)N)NC(=O)[C@@H](CC(C)C)NC(=O)[C@@H](NC(=O)[C@@H](NC(=O)CNC(=O)[C@@H](CC(C)C)NC(=O)[C@@H](N)Cc2ccccc2)[C@@H](C)O)C(C)C)C(C)C)C(C)C)CSSC[C@@H](C(=O)O)NC(=O)[C@@H](CCCNC(=N)N)NC(=O)[C@@H](CCCNC(=N)N)NC(=O)[C@H](Cc2ccccc2)NC1=O  survival rate (Streptococcus pyogenes; Galleria mellonella larvae; 32 mg/kg, titanium implant biofilm infection): 90%
CCCSC(SCCC)c1ccc(OCCNS(=O)(=O)c2ccccc2C(F)(F)F)c(OC)c1  EC50 (Tobacco mosaic virus; inactivation activity; plant in vivo): 766.7 ± 4.3 µg/mL (≈ 1430 µM)
CCOC(=O)C1(Cc2ccccc2F)Oc2cc(F)ccc2N(Cc2ccccc2F)C1=O (centres unmarked)  inhibition (Echinochloa crus-galli; fresh weight, greenhouse postemergence; postemergence, 150 g ai/ha, 21 days): 47.1 ± 1.7%
FC(F)(F)c1cccc(CNc2nc(NC3CCN(Cc4ccccc4)CC3)c3nc[nH]c3n2)c1  median survival (Cryptococcus neoformans; Galleria mellonella larvae; 2 mg/kg single dose): 3 days
COc1ccc(C2=[N+]([O-])c3ccccc3N3CCCN=C23)cc1  MIC50 (Prevotella spp.; bacterial growth): 0.5 µg/mL (≈ 1.63 µM)
Cc1cc(C(=O)Nc2nc3cccc(C)c3n2[C@H]2CCCCN(C(=O)/C=C/CN(C)C)C2)ccn1  cell cycle distribution (Trypanosoma brucei; propidium iodide flow cytometry, refers to: G2/M phase; bloodstream CLK1 over-expression uninduced; concentration not given): 45.7% and 45.8% and 41.9%
O[C@]12C=C(c3nccc4c3[nH]c3ccccc34)[C@@H]3CCN(CCCC/C=C\CC1)C[C@@]31C[C@@H]3/C=C\CCCCN3[C@H]12  IC50 (Mycobacterium intracellulare; microbial growth, resazurin; ATCC23068): 0.36 µg/mL (≈ 0.656 µM)
Cc1ccc(N2CC3CC(C2)N3C)cc1C(=O)NC1(c2ccc3c4c(cccc24)C(=O)N3C)CC1  inhibition (Human coronavirus NL63; viral replication; 10 µM): 97.1%
CC[C@H](C)[C@H](NC(=O)[C@H](C)NC(=O)CNC(=O)[C@H](C)NC(=O)[C@H](CCCCN)NC(=O)[C@H](CO)NC(=O)[C@H](C)NC(=O)[C@H](CCSC)NC(=O)CN)C(=O)N[C@@H](C)C(=O)NCC(=O)N[C@@H](CCCCN)C(=O)N[C@H](C(=O)N[C@@H](C)C(=O)N[C@@H](CCCCN)C(=O)N[C@H](C(=O)N[C@@H](C)C(=O)N[C@@H](CC(C)C)C(=O)N[C@@H](CCCCN)C(=O)N[C@@H](C)C(=O)N[C@@H](CC(C)C)C(N)=O)C(C)C)[C@@H](C)CC  MIC (Escherichia coli; CFT073 nalidixic acid-resistant; 18 h, 37 °C, minimal salts medium): 2.5 µg/mL
CCOC(=O)C1(Cc2ccc(F)cc2)Oc2cc(F)ccc2N(Cc2ccc(F)cc2)C1=O (centres unmarked)  inhibition (Echinochloa crus-galli; fresh weight, greenhouse postemergence; postemergence, 150 g ai/ha, 21 days): 51 ± 2.09%
[O-][N+]1=C(Cc2ccccc2)C2=NCCCN2c2ccccc21  MIC90 (Parabacteroides distasonis and Bacteroides spp.; bacterial growth): 4 µg/mL (≈ 13.7 µM)
CCOC(=O)C1(Cc2cc(OC)cc(OC)c2)Oc2cc(F)ccc2N(Cc2cc(OC)cc(OC)c2)C1=O (centres unmarked)  inhibition (Eclipta prostrata; fresh weight, greenhouse postemergence; postemergence, 150 g ai/ha, 21 days): 63.4 ± 1.51%
CC[C@H](C)CCCCC(=O)N[C@@H](CCN)C(=O)N[C@H](C(=O)N[C@@H](CCN)C(=O)N[C@H]1CCNC(=O)[C@H]([C@@H](C)O)NC(=O)[C@H](CCN)NC(=O)[C@H](CCN)NC(=O)[C@H](CC(C)C)NC(=O)[C@@H](CC(C)C)NC(=O)[C@H](CCN)NC1=O)[C@@H](C)O  MIC fold change (Escherichia coli; daily serial passaging; ATCC 8739; highest sub-MIC, 21 days; baseline: initial MIC): 0.947
COc1cc(C(SC(C)C)SC(C)C)ccc1OCCNS(=O)(=O)c1cccc(C(F)(F)F)c1  EC50 (Tobacco mosaic virus; protective activity; plant in vivo): 578.7 ± 1.7 µg/mL (≈ 1080 µM)
CCOC(=O)C1(Cc2ccc([N+](=O)[O-])cc2)Oc2cc(F)ccc2N(Cc2ccc([N+](=O)[O-])cc2)C1=O (centres unmarked)  inhibition (Echinochloa crus-galli; fresh weight, greenhouse postemergence; postemergence, 150 g ai/ha, 21 days): 37.3 ± 1.43%
CCCCSC(SCCCC)c1ccc(OCCNS(=O)(=O)c2ccc(F)cc2)c(OC)c1  EC50 (tobacco mosaic virus; curative activity; in vivo plant): 329.5 ± 1.5 µg/mL (≈ 639 µM)
CC[C@H](C)[C@H](NC(=O)[C@H](CCCCN)NC(=O)[C@H](CCCCN)NC(=O)[C@H](Cc1ccccc1)NC(=O)[C@H](Cc1ccccc1)NC(=O)[C@H](CCCCN)NC(=O)[C@H](CCCCN)NC(=O)[C@H](Cc1ccccc1)NC(=O)[C@H](CCCNC(=N)N)NC(=O)[C@@H](N)CCCCN)C(=O)N[C@@H](CCCCN)C(=O)N[C@@H](CCCCN)C(=O)N[C@@H](CO)C(=O)N[C@H](C(=O)N[C@@H](CCCCN)C(=O)N[C@@H](CCCCN)C(=O)N[C@@H](CCCNC(=N)N)C(=O)N[C@H](C(=O)N[C@@H](CCCCN)C(=O)N[C@@H](CCCCN)C(=O)N[C@@H](CC(C)C)C(=O)N[C@@H](Cc1ccccc1)C(=O)N[C@@H](CCCCN)C(=O)N[C@@H](CCCCN)C(=O)N1CCC[C@H]1C(=O)N[C@@H](CCCNC(=N)N)C(=O)N[C@H](C(=O)N[C@H](C(=O)N1CCC[C@H]1C(=O)N[C@H](C(=O)N[C@@H](CO)C(=O)N[C@H](C(=O)N1CCC[C@H]1C(=O)N[C@@H](Cc1ccccc1)C(=O)O)[C@@H](C)CC)[C@@H](C)CC)[C@@H](C)CC)C(C)C)C(C)C)C(C)C  MBC (Escherichia coli; ATCC 25922; 20 h): 8 µg/mL (≈ 1.9 µM)

Some of these lines once more:
CCn1cnc2c(Oc3ccc(/C=C/C(=O)c4ccc(NS(=O)(=O)c5ccccc5C)cc4)cc3)ncnc21  EC50 (Tobacco mosaic virus; protective activity; plant in vivo): 447.2 ± 2.1 µg/mL (≈ 829 µM)
CCOC(=O)C1(Cc2ccc(F)cc2)Oc2cc(F)ccc2N(Cc2ccc(F)cc2)C1=O (centres unmarked)  inhibition (Echinochloa crus-galli; fresh weight, greenhouse postemergence; postemergence, 150 g ai/ha, 21 days): 51 ± 2.09%
Cc1cc(C(=O)Nc2nc3cccc(C)c3n2[C@H]2CCCCN(C(=O)/C=C/CN(C)C)C2)ccn1  cell cycle distribution (Trypanosoma brucei; propidium iodide flow cytometry, refers to: G2/M phase; bloodstream CLK1 over-expression uninduced; concentration not given): 45.7% and 45.8% and 41.9%
CCCCSC(SCCCC)c1ccc(OCCNS(=O)(=O)c2ccc(F)cc2)c(OC)c1  EC50 (tobacco mosaic virus; curative activity; in vivo plant): 329.5 ± 1.5 µg/mL (≈ 639 µM)
